Published values of several laboratories.
Compare with care: the assays were run in different laboratories. “And” joins repeats or separate records; there may be more than shown. ± gives the spread as reported.

`COC(=O)c1ccc(/C=N/NS(=O)(=O)c2ccc(OC)c(OC)c2)cc1` has a half-life of 0.095 h (liver microsomes, male Wistar rat; 10 µM, pH 7.4, 37 °C, without NADPH).
The half-life of `C[C@@H](O)[C@@H]1NC(=O)[C@@H]2CCCN2C(=O)[C@H](CC(N)=O)NC(=O)[C@@H](NC(=O)[C@H](Cc2ccc(O)cc2)NC(=O)CNC(=O)[C@@H](N)CC(N)=O)CCC(=O)NCCCC[C@@H](C(=O)N[C@@H](Cc2ccccc2)C(=O)N[C@@H](Cc2ccccc2)C(=O)N[C@@H](CCC(=O)O)C(=O)O)NC(=O)[C@H](Cc2ccc(O)cc2)NC1=O` is reported as 1.75 h (human plasma; 37 °C).
The half-life of `CC(=O)N[C@H]1CSSC[C@@H](C(N)=O)NC(=O)[C@H](C(C)C)NC(=O)[C@@H]2CCCN2C(=O)[C@@H]2CCCN2C(=O)[C@H]([C@@H](C)O)NC(=O)[C@H](CC(=O)O)NC1=O` is reported as 5.7 h (plasma).
`NCCC(=O)N[C@@H](Cc1c[nH]c2ccc(O)cc12)C(=O)N[C@@H](Cc1ccc(Cl)cc1)C(=O)N[C@@H](Cc1ccncc1)C(N)=O` gave a half-life of about 12 h (EphA4-ephrin-A5 ELISA; mouse serum; 37 °C).
With `Cn1cc(C(N)=O)c(NC2C3CC4CC2CC(OS(=O)(=O)O)(C4)C3)c2ccnc1-2` (centres unmarked) the half-life was 9.94 h (Japanese adults, mild hepatic impairment, plasma; oral, 150 mg single dose).
`CC[C@H](C)[C@H](NC(=O)CNC(=O)CNC(=O)c1ccc2c(c1)C(=O)OC21c2ccc(O)cc2Oc2cc(O)ccc21)C(=O)N[C@@H](Cc1ccc(O)cc1)C(=O)N[C@@H](C)C(=O)N(C)CC(=O)N1CCC[C@H]1C(=O)N(C)[C@@H](Cc1ccccc1)C(=O)N[C@@H](CCCCN)C(=O)N[C@@H](CCCCN)C(=O)N[C@@H](CCCCN)C(=O)O` has a half-life of 1.83 h (CE-LIF; Baf/BCR-ABL cell cytosolic lysate; 1 µM, pH 7.4, 37 °C).
With `C[C@H](N)C(=O)OCCOCn1cnc2c(=O)[nH]c(N)nc21` the half-life was 47 ± 5 h (DPBS; pH 6.0, 34 °C, chemical hydrolysis).
For `[2H]C([2H])(c1ccccc1)C([2H])([2H])N1C(=O)CC(=O)N(C([2H])([2H])C([2H])([2H])c2ccccc2)C1=O`, the half-life was 0.823 h (plasma).
`COC(=O)C(NC(C)=O)C(C)(C)SSC(=O)Oc1ccc(C(F)(F)F)cc1` (centres unmarked) gave a half-life of 0.933 ± 0.05 h (precursor decay, RSSH release, HPLC; PBS with 50% acetonitrile; 100 µM, 37 °C, added: MMTS 1 mM).
The half-life of `Cc1cccc(C)c1OCC(=O)N[C@@H](Cc1ccccc1)[C@H](C[C@H](Cc1ccccc1)NC(=O)[C@H](C(C)C)N1CCCNC1=O)OC(=O)[C@@H](N)CC(C)C` is reported as 29.6 ± 0.4 h (DPBS; 50 µM, pH 4, 37 °C).
`O=C(CCc1ccc(Br)cc1)N[C@H]1CCOC1=O` gave a half-life of 8.5 to 11 h (TRIS buffer with 0.5% DMSO; 50 µM, pH 7, 37 °C).
For `CC(C)(C)[C@H](NC(=O)C(F)F)C(=O)N1C[C@H]2[C@@H]([C@H]1C(=O)N[C@H](C#N)C[C@@H]1CCCNC1=O)C2(C)C`, the half-life was 0.277 h (mouse liver microsomes; microsomes 0.5 mg/mL).
For `CCC(CC)[C@H](NC(C)=O)[C@@H]1[C@H](O)[C@@H](C(=O)OCCOC(=O)[C@@H](N)C(C)C)C[C@H]1NC(=N)N`, the half-life was 2.97 ± 0.367 h (phosphate buffer; pH 7.4, 37 °C, chemical stability).
With `Cn1cc(C(N)=O)c(NC2C3CC4CC2CC(O)(C4)C3)c2ccnc1-2` (centres unmarked) the half-life was 12.2 h (Japanese adults, normal hepatic function, plasma; oral, 150 mg single dose).
`NS(=O)(=O)c1ccc(NC(=O)NN[C@@H]2O[C@H](CO)[C@@H](O)[C@H](O)[C@H]2O)cc1` gave a half-life of 23.9 h (mouse liver microsomes; 1 µM).
`COc1cc2nc(N3CCCCC3)nc(NC3CCN(C)CC3)c2cc1OC` gave a half-life of over 4 h (rat plasma; plasma stability).
`CC[C@H](C)[C@H](NC(=O)CNC(=O)CNC(=O)c1ccc2c(c1)C(=O)OC21c2ccc(O)cc2Oc2cc(O)ccc21)C(=O)N[C@@H](Cc1ccc(O)cc1)C(=O)N[C@H](C)C(=O)N[C@@H](C)C(=O)N1CCC[C@H]1C(=O)N(C)[C@@H](Cc1ccccc1)C(=O)N[C@@H](CCCCN)C(=O)N[C@@H](CCCCN)C(=O)N[C@@H](CCCCN)C(=O)N[C@@H](C)C(N)=O` has a half-life of 0.298 h (CE-LIF; Baf/BCR-ABL cell cytosolic lysate; 1 µM, pH 7.4, 37 °C).
For `CN(C)CCNC(=O)c1cc(-c2ccccc2)nc2ccccc12`, the half-life was 0.373 h (mouse liver microsomes).
The half-life of `CC[C@H](C)[C@H](NC(=O)[C@@H](N)[C@@H](C)O)C(=O)N[C@@H](CCCCN)C(=O)N[C@H](C(=O)N1CCC[C@H]1C(=O)N[C@@H](C)C(=O)NCC(=O)N[C@H](C(=O)O)[C@@H](C)O)[C@@H](C)CC` is reported as 0.281 ± 0.00667 h (human plasma; 0.1 mg/mL, 37 °C).
`CCC(CC)O[C@@H]1C=C(C(=O)OC(OC(=O)[C@@H](N)C(C)C)C(C)C)C[C@H](NC(=N)N)[C@H]1NC(C)=O` (single isomer, unassigned): half-life “stable” (acetate buffer with pancreatin; pH 5.5).
The half-life of `CCN(CC)CC#CCNc1ccnc2cc(Cl)ccc12` is reported as over 1 h (plasma; 2 µM, pH 7.4, 37 °C).
With `CC(=O)N[C@H](CC(=O)O)C(=O)N[C@H](Cc1c[nH]c2ccccc12)C(=O)N[C@H](Cc1ccccc1)C(=O)N[C@H](CCCCN)C(=O)N[C@H](C)C(=O)N[C@H](Cc1ccccc1)C(=O)N[C@H](Cc1ccc(O)cc1)C(=O)N[C@H](CC(=O)O)C(=O)N[C@H](CCCCN)C(=O)N[C@@H](C(=O)N[C@H](C)C(=O)N[C@H](CCC(=O)O)C(=O)N[C@H](CCCCN)C(=O)N[C@H](Cc1ccccc1)C(=O)N[C@H](CCCCN)C(=O)N[C@H](CCC(=O)O)C(=O)N[C@H](C)C(=O)N[C@H](Cc1ccccc1)C(N)=O)C(C)C` the half-life was 0.45 h (statin-treated high-risk CHD patients, plasma; oral, 300 mg daily, day 13, median, detected subjects).
`CC(C)[C@H](NC(=O)CNC(=O)[C@H](CCC(N)=O)NC(=O)[C@H](C)N)C(=O)O` gave a half-life of 0.11 h (healthy volunteers, LPS endotoxaemia, plasma; intravenous, 45 mg/kg/h, 2 h infusion, geometric mean, added: LPS 2 ng/kg).
`O=C(Nc1ccc(-c2noc(C3CC3)n2)c(Cl)c1)c1cccs1` has a half-life of 0.877 ± 0.207 h (chemical stability; buffer; 5 µM, pH 10.0, 37 °C).
`CC(=O)NC1C(N=C(N)N)C=C(C(=O)OC(C)OC(=O)C(N)C(C)C)OC1C(O)C(O)CO` (mixture of isomers) gave a half-life of over 4 h (acetate buffer; pH 4, 37 °C, chemical hydrolysis).
For `CCOC(=O)CCC(=O)Oc1ccc(/C=C/C(=O)/C=C(O)/C=C/c2ccc(OC(=O)CCC(=O)OCC)c(OC)c2)cc1OC`, the half-life was 0.13 ± 0.017 h (beagle dog plasma; 1.5 µM, 37 °C).
The half-life of `Nc1nc2c(ncn2COCCOC(=O)CCC(=O)OC[C@H](N)C(=O)O)c(=O)[nH]1` is reported as 38 ± 12 h (DPBS; pH 7.4, 34 °C, chemical hydrolysis).
For `CCC(C)C(N)C(=O)OC(C)OC(=O)C1=CC(N=C(N)N)C(NC(C)=O)C(C(O)C(O)CO)O1` (mixture of isomers), the half-life was 0.8 ± 0.188 h (phosphate buffer; pH 7.4, 37 °C, chemical hydrolysis).
The half-life of `Cc1ccccc1-c1cc(N2CC[N+](C)([O-])CC2)ncc1N(C)C(=O)C(C)(C)c1cc(C(F)(F)F)cc(C(F)(F)F)c1` is reported as 33.5 to 55.9 h (healthy volunteers, plasma; oral, dose not given).
`CCC(CSC[C@@H](NC(=O)CC[C@@H](N)C(=O)O)C(=O)NCC(=O)O)C(=O)c1ccc(OCC(=O)NCCCC[18F])c(Cl)c1Cl` (some centres unmarked) has a half-life of 1 h (intact radiotracer in vivo).
`COc1cc(C)c(Cc2ccc(O)cc2)cc1[C@@H]1S[C@H](CO)[C@@H](O)[C@H](O)[C@H]1O` has a half-life of 20.2 ± 4.39 h (Japanese T2DM patients, plasma; 2.5 mg luseogliflozin, day 1, once daily).
For `Cc1nc(-c2ccc(NC(=O)c3cccs3)cc2Cl)no1`, the half-life was 1.3 h and 1.72 h (plasma stability; mouse plasma; 5 µM, 37 °C).
For `C[C@H](NC(=O)COC(=O)[C@H](C)NC(=O)CO)C(=O)O`, the half-life was 674 h (water; pH 2, 25 °C).
The half-life of `CN1CCN(c2cc(-c3ccccc3CO)c(N(C)C(=O)C(C)(C)c3cc(C(F)(F)F)cc(C(F)(F)F)c3)cn2)CC1` is reported as 48.8 to 67.8 h (healthy volunteers, plasma; oral, dose not given).
With `N=C(N)NCCC[C@H](NC(=O)[C@@H](Cc1ccccc1)NC(=O)[C@H](Cc1cnc[nH]1)NC(=O)COCC(=O)NCCCOCCOCCOCCCN)C(=O)N[C@@H](Cc1c[nH]c2ccccc12)C(N)=O` the half-life was 10.6 h (LC-MS/MS; mouse serum; 10 µM, 37 °C).
For `CCC(=O)N[C@@H](C)C(=O)OCC(=O)N[C@@H](C)C(=O)O`, the half-life was 93.3 h (water; pH 2, 65 °C).
With `CCCCCCCCN(CCC(=O)Nc1ccccc1)C(=O)c1ccccn1` the half-life was over 24 h (human serum; 0.5 mM, 37 °C).
`[NH2][Pt]1([NH2])([Cl])([O]C(=O)C(F)(F)F)[O]C(=O)C2(CC(=O)C2)C(=O)[O]1` gave a half-life of 0.833 to 1 h (HPLC; MeOH/PBS 1:9 v/v; pH 7.4, 37 °C, PBS 7.87 mM).
For `CC(C)(C)c1nc(-c2ccc(NC(=O)c3cccs3)cc2Cl)no1`, the half-life was 0.572 ± 0.122 h (buffer; 5 µM, pH 10.0, 37 °C).
The half-life of `O=[N][Fe]1([N]=O)[S](CCO)[Fe]([N]=O)([N]=O)[S]1CCO` is reported as 4.5 ± 0.2 h (stability; mouse plasma; 37 °C).
The half-life of `CCC(CC)[C@H](NC(C)=O)[C@@H]1[C@H](O)[C@@H](C(=O)N[C@H](C(=O)O)[C@@H](C)CC)C[C@H]1NC(=N)N` is reported as 37.5 ± 1.2 h (phosphate buffer; pH 4.5, 37 °C, chemical stability).
With `COc1cc(/C=C/C(=O)/C=C/c2ccc(O)c(OC)c2)ccc1O` the half-life was about 3 h (nano-LC-MS; serum-free RPMI 1640 medium; 37 °C).
`NC(COc1cc(C(F)(F)F)cc(C(F)(F)F)c1)c1ccccc1` (centres unmarked) has a half-life of over 360 h (chemical stability, HPLC; pH 3, 37 °C).
`COC1CN([C@H]2CC[C@H]([C@@]3(C)Oc4c(Cl)cc(C(=O)NCc5c(SC)cc(C)[nH]c5=O)c(C)c4O3)CC2)C1` has a half-life of about 8 h (patients with advanced tumours, plasma; oral, once daily, phase I).
